Measured values from different studies.
Numbered parts are unrelated; each lists some results of a single study. Substitutions count along the parent as printed.

Series 1
Target: Sal-like protein 4, full length isoform A (SALL4, Homo sapiens, UniProt Q9UJQ4, residues 1-1053)
UniProt Q9UJQ4, sequence (whole entry, looked up): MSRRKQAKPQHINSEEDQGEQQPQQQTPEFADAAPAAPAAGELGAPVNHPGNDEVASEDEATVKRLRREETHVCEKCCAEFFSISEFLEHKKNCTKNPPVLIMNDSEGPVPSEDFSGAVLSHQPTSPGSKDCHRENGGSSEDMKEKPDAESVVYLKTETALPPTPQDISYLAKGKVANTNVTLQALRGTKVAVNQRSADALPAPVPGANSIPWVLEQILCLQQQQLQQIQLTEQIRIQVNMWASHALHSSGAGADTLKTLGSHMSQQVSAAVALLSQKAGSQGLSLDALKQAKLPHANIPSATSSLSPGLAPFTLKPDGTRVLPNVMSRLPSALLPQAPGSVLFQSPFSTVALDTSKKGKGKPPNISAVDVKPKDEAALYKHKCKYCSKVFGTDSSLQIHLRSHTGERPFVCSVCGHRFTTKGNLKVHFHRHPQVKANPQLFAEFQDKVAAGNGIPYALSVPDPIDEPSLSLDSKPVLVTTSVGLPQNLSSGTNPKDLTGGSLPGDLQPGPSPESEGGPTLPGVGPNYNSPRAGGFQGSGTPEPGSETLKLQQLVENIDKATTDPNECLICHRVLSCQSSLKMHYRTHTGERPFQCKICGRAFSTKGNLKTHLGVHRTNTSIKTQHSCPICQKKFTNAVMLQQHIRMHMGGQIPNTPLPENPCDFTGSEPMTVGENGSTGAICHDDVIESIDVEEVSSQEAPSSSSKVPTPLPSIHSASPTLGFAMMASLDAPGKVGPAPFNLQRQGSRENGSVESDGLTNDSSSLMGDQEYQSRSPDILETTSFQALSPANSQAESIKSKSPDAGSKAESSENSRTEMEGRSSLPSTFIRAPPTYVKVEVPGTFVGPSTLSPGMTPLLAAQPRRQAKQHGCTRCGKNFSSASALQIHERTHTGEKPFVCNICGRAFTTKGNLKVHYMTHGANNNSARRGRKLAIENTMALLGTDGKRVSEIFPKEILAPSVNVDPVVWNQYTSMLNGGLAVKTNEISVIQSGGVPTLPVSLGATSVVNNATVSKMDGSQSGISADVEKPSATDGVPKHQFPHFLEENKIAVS
Method: universal PBM
Form: double-stranded DNA, one strand shown
Matrix: in vitro
Tested at: 600 nM
Setting: 8-mer, flanks averaged, mean of replicates
Direction: higher = stronger binding
| Sequence | E-score |
| --- | --- |
| TACACTGA | 0.143 |
| ACCATCGA | 0.0397 |
| AGCCTAGG | -0.25 |
| CAACGGCC | -0.245 |
| CCCACGCA | -0.0931 |
| CCATAGCC | -0.178 |
| TACACCCA | 0.0241 |
| AGTCTAAG | 0.147 |
| CGTATTAA | 0.169 |
| TTAGCCAA | 0.0512 |
| AGCAAGCT | -0.179 |
| ATTCGGAA | 0.132 |
| GCCTGGCA | -0.313 |
| CGCGCAAA | 0.108 |
| AACCAGCT | 0.00468 |
| TAGGGTCA | -0.171 |
| AAATGCCT | 0.102 |
| TAGCACAA | 0.0469 |
| ACAGCACA | 0.0559 |
| GCGACCCC | -0.244 |
| GCCGCAGC | -0.293 |
| GAGCCTCC | -0.232 |
| AGAACGTA | 0.0362 |
| GGGTTTAA | 0.115 |
| ATGGGGGC | -0.283 |

Series 2
Target: ABI1, truncated, D143A, DHFR fusion (Arabidopsis thaliana)
Method: DHFR PCA, deep sequencing
Matrix: yeast
Setting: methotrexate growth selection, single substitutions
Together with: (+)-ABA 200 µM
Relative to: wild-type fitted maximum
Direction: higher = stronger binding
Starting sequence: PYL1, truncated, DHFR fusion (Arabidopsis thaliana); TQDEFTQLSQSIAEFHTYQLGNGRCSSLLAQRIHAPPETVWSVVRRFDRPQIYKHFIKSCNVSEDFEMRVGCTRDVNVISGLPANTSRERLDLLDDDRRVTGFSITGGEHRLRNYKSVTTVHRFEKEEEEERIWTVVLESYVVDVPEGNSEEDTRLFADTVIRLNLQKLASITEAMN
| Variant | relative binding score [%] |
| --- | --- |
| T101Q | 53.5 |
| V143S | 58.4 |
| A13K | 97 |
| I12S | 41.8 |
| Q51W | 95.2 |
| G81M | 31.2 |
| D97Q | 99.2 |
| E38L | 65.6 |
| R98I | 112 |
| T160M | 94 |
| I133C | 117 |
| S150L | 66.7 |
| Y18R | 87.2 |
| R46Y | 46.2 |
| E151D | 95.1 |

Series 3
Target: CCNA2, cyclin fold, Cln2 fusion (human)
Method: yeast growth competition, sequencing
Matrix: yeast
Setting: strong parent motif
Relative to: not given
Direction: higher = stronger binding
Starting sequence: CDKN1C docking peptide (human); TSACRSLFGPVDH; partner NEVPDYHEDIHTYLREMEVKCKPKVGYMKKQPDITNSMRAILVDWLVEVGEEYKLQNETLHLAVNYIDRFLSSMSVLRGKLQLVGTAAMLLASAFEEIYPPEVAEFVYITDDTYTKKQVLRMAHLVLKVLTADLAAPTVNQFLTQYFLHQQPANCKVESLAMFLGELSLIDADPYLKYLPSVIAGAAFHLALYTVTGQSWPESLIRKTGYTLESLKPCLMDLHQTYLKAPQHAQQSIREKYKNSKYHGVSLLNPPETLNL
| Variant | normalised enrichment score |
| --- | --- |
| R5K F8L | 0.257 |
| L7A | -0.267 |
| G9A | 2.9 |
| T1A | 2.89 |
| D12A | 2.84 |
| S6A | 2.7 |
| R5A | -0.183 |

Series 4
Target: Interferon regulatory factor 7, full length, phosphomimetic (IRF7, Homo sapiens, UniProt Q92985, residues 1-503, S471D/S472D/S475D/S476D/S477D/S483D/S484D/S487D)
Method: protein-binding microarray
Form: double-stranded DNA, one strand shown
Matrix: in vitro
Tested at: 2200 nM top
Setting: 60-bp whole probe
Together with: salmon DNA 0.4 mg/ml
Relative to: random background probes
Direction: higher = stronger binding
Shared flanks, not repeated: GCCTAGCAC … GTCTTGATTCGCTTGACGCTGCTG
Residues (chain): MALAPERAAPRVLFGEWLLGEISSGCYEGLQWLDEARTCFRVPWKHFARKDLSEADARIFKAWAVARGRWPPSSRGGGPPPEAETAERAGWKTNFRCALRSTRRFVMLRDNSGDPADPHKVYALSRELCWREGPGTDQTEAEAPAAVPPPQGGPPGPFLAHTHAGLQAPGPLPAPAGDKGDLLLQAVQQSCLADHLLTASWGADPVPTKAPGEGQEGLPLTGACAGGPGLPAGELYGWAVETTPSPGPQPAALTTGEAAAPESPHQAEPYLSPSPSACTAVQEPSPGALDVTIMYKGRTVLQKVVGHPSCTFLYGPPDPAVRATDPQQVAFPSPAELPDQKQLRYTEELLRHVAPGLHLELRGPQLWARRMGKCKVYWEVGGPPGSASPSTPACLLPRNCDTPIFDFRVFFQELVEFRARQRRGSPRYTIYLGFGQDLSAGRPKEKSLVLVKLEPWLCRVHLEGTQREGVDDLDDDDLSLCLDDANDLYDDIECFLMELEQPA
| Sequence | fitted relative affinity [z-score] |
| --- | --- |
| GACGGACTGGCCACTGGGGACGTGCTA | -1.26 |
| TTAGATTTCAGTAGCGATTAGTGCTAG | -0.371 |
| TTAGTTCTCGGTATCGGTTAGTGCTAG | 1.77 |
| GACGAGCTCAGACTGGAGACGTGCTAG | -0.536 |
| GACGGACTGGGCCTGGGGACGTGCTAG | -1.07 |
| GACGGACTGCTTCTCCTGAAGTGCTAG | 0.371 |
| GACGAACTGGGGACTGGAAACGTGCTA | 0.167 |
| TTAGGACTGGGGTATCGGTAAGTGCTA | -0.544 |
| TCAAATATATGTATATAACTGTGCTAG | 0.00398 |
| TTAGGTTTCGGGACTGAGTTAGTGCTA | 2.55 |
| TTAGGTTTACTTTTCCTTTAGTGCTAG | 3.37 |
| GACGGTATCGGTCTCGAGACGTGCTAG | 0.174 |
| TTAGTTTTCATTATTGTGTCGTGCTAG | 2.49 |
| TTAGGACTGGGTCTCGATTAGTGCTAG | -0.211 |
| TCAGCTCTCTGGACTGTGACTGTGCTA | 0.52 |
| TATGAAATGGAAGTTTAGGGGTGCTAG | -0.393 |
| CGAGTTTCTATTTTCTGAATGTGCTAG | 6.3 |
| GAGGATTTCGGGTATCGAGACGTGCTA | 2.07 |
| TTAGATATCGGGTATCGGTTAGTGCTA | 0.51 |
| TCAACTTTAACTTATTCTACTGTGCTA | 0.417 |

Series 5
Target: Histone acetyltransferase KAT6A, both winged helices, GST fusion (KAT6A, Homo sapiens, UniProt Q92794, residues 1-181)
Method: protein binding microarray
Form: double-stranded DNA, one strand shown
Matrix: in vitro
Tested at: not given
Setting: 8-mer, flanks averaged, mean of 2 arrays, mostly near background
Relative to: not given
Direction: higher = stronger binding
Residues (chain): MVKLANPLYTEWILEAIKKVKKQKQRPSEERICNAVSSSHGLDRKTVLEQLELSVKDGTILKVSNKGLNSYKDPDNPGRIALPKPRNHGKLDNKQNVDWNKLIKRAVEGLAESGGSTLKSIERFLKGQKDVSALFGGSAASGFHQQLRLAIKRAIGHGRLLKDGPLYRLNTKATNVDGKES
| Sequence | E-score |
| --- | --- |
| CTACCACA | -0.206 |
| AAATGAGC | -0.117 |
| CTTTGTAC | -0.172 |
| CAGTACAG | -0.129 |
| GGTATGTA | -0.0935 |
| ATCAAAGG | -0.0653 |
| GAATTCGA | -0.0613 |
| AAGGTCGG | 0.105 |
| ATGTGGAC | -0.0176 |
| ACGTTGCC | 0.0737 |
| CCGCCTAG | 0.107 |
| CATATCGG | 0.0419 |
| AAATGGGA | -0.235 |
| AACCCAAC | -0.291 |
| CGCGCCTA | 0.295 |
| AAATCCGC | 0.243 |

Series 6
Target: RNA binding protein fox-1 homolog 2, RRM domain, GST-SBP tag (RBFOX2, Homo sapiens, UniProt O43251-10, residues 100-194)
Method: RNA Bind-n-Seq
Form: RNA
Matrix: in vitro
Tested at: 365 nM
Setting: natural RNA segment, single round, ends assumed
Relative to: no-protein control
Direction: higher = stronger binding
Shared flanks, not repeated: GGGAGUUCUACAGUCCGACGAUC … UGGAAUUCUCGGGUGCCAA
Construct (chain): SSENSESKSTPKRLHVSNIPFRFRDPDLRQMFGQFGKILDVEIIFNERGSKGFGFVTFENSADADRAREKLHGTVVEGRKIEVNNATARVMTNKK
| Sequence | RBNS enrichment (R) |
| --- | --- |
| AGCACAGAAACAGAGCAGAAAGUAGUACAAUCAUGUUGGACCUUCUUUCUGUUCUCUUUACUCUUCUCACAGAUCAGAUCACUCCAUAGAAGCCUGUGGGUUUCGAUGGU | 0.244 |
| AACAUUUUGGAUUUUCAUAUGUGUCUGAUAAGUGGUUGAAUAGUCGUUUGGCGCUGUUGUAUGGUGUGAUUGUCAGUGUAUGGUGUCACUUCCUAUAGCCAGCCAGCAUA | 0.291 |
| UCUGUCACAAACCACAUUAAAUUGUAAAUAAGGCCCUUCUCCACUUGACUUCAGGCAGCAGAUUGUCUAGAAGCCUAAGGACAGCAAUUUCUCUGACAAGACAAAGUAGA | 0.371 |
| GGGUUGUGUUUAUAUUCGGGGGGAGGGGUAUACUUAAUAAAGUUACUGCUGUCUGUCAGAUACCUCUGCCUGGUAUUGGAGAUUUCUUUUUCUUUAUCUUUUUCUGCCCC | 0.539 |
| AAGAGGUAUUAGAAUCUUGCUGUACCCAAGCAAGACGUUAAUUUUUCUUUUAACUGUUUUGGGGAGGGAGGGAGUGAUAGCUUAACUGCUGAAGCCAGGCGGGGGUCUGC | 0.458 |
| CAAUUUCUGUCUUUUGUAAGACUGUGGGCUUUAGGCUUCUCUUGGUUUGUUUUGUGCAUUAAGGGACAUAACUUGGGACUCAAAGGGAUUGUUUCGCUGACCCCGCUCUU | 1.26 |
| AAAGCAAAAACAAAAGGAGGUAUUAAGUCCAGUUUCCAGGCUACUUGCUGUGUACAUCAAGAAAAUUCAGUUGAAUUCUGAGAUUAGCAUGGUUAUUAGCACUUUAUGCU | 0.707 |
| UUACUACAAAUGCUUAUUCUCAUUGACUUAUUUCUUUCAUGGUAACUUUCGUUUUGGAGUGUUCAUUUUCUGAACUUGACCCUCACAUUGUAGGGGUGCAGUUUGUCCAA | 0.274 |
| AUUUUGAGAUCAGUCUUUAUUAAUAAAACCUGUUCUCUUUAAUCAGCUUAAAAUCCAAAGUGUCAUAUUUACUGGUCCUGGAGACAAACUUGUUCAAAAGAACAUCAACG | 0.302 |
| AGUGAUGAAUUUAAGAGAGUUUUAACAUGUCAAAUUUGAAGCCAAUUCAGUAUCCUUAUUUGUUCCAAGACUCUUAACCAAUACUGUGAUAUAAAGUUAGGAUUUGGGAA | 0.387 |
| UUUACUGUGCAUGUCUCUGUACAAAGUGUACCUCUGGAAGCUGCCAAGUGAUAACACUGCUUUCUUAUACACUGGGAUCAUUGUCACUUGAAAAAAAAAACAUUAUUGUG | 1.11 |
| CCAGUUCAACUACUGGCGUCCACCGGCCGCGCCACGAACCCCUUGCCGAUCCCGAUCCCUGUCGGGCUCCUCCGACUCCUCGGGCUGGACACCGAAACCUCCCUUCUUAA | 0.218 |

Mixed results
Method: cross-linking MS
| Molecule | partner | matrix | setting | together with | quantity | value |
| --- | --- | --- | --- | --- | --- | --- |
| GPD2 (Homo sapiens, UniProt P43304) | IMMT (Homo sapiens, UniProt Q16891) |  | hits only |  | interaction screen | cross-linked |
| PARP1 (Homo sapiens, UniProt P09874) | BTN1A1 (Homo sapiens, UniProt Q13410) | cell fractions |  | DMTMM | cross-linked residues | D807 to K294 |
| EPRS1 (Homo sapiens, UniProt P07814) | ARFGAP2 (Homo sapiens, UniProt Q8N6H7) | cell fractions |  | DSSO | cross-linked residues | K861 to K263 |
| HSP90B1 (Homo sapiens, UniProt P14625) | CHID1 (Homo sapiens, UniProt Q9BWS9) | cell fractions |  | DSSO | cross-linked residues | K597 to K361 |

A few entries again (series 2):
| Variant | relative binding score [%] |
| --- | --- |
| G81M | 31.2 |
| D97Q | 99.2 |
| E38L | 65.6 |
| R98I | 112 |
| T160M | 94 |
| I133C | 117 |
| S150L | 66.7 |
| Y18R | 87.2 |
| R46Y | 46.2 |
